Experimental data from different studies.
Each numbered part is a random draw from the data of one study; scales do not carry over between parts. Several values in a cell are separate wells, animals, samples, runs or records.
Sequence of UniProt Q5XXA6 (whole entry, unmodified, looked up): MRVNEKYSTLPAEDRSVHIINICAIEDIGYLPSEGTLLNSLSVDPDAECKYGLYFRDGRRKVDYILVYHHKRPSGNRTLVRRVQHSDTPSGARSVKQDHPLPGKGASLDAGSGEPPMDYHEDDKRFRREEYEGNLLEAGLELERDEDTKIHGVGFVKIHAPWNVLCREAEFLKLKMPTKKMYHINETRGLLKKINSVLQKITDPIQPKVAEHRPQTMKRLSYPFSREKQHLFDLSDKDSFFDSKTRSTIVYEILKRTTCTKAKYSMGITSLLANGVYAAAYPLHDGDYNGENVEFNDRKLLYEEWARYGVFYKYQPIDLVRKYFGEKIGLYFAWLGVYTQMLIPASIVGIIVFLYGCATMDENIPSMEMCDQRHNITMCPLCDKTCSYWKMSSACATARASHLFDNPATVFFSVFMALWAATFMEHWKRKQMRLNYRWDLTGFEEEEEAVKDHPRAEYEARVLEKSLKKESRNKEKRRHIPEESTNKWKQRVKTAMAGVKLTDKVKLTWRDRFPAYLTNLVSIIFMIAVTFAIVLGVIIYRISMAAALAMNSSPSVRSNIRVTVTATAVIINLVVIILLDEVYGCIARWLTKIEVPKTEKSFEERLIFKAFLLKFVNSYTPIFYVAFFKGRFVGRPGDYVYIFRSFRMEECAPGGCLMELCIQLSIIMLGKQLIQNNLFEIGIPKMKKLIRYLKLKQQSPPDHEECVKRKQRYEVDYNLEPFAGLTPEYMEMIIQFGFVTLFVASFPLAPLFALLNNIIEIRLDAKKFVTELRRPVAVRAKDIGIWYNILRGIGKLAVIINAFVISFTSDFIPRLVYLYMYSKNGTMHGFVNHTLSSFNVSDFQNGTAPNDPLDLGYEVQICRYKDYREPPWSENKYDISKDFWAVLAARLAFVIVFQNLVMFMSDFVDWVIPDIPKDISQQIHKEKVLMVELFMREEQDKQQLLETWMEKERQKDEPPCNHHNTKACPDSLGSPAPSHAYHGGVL
Sequence of UniProt Q13404 (whole entry, looked up): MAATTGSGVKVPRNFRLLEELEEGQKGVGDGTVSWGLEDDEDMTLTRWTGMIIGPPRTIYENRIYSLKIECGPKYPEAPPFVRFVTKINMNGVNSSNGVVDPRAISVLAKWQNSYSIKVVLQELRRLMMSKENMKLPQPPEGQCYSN
Sequence of UniProt P32298 (whole entry, looked up): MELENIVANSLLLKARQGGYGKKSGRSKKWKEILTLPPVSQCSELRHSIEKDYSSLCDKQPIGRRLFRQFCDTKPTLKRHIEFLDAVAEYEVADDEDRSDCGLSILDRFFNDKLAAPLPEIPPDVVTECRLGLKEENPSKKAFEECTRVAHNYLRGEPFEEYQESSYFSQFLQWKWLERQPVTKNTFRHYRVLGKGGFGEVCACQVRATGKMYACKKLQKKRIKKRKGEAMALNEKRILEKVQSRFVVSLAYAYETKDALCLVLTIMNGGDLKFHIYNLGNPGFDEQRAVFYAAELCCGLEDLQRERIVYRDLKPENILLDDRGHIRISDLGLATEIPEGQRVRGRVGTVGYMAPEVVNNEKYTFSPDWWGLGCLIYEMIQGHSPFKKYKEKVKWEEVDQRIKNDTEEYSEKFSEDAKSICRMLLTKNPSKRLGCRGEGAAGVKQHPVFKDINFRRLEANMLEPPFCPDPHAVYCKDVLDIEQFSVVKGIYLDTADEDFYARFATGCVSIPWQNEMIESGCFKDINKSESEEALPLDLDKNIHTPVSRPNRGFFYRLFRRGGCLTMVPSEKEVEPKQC
Sequence of UniProt Q15418 (whole entry, looked up): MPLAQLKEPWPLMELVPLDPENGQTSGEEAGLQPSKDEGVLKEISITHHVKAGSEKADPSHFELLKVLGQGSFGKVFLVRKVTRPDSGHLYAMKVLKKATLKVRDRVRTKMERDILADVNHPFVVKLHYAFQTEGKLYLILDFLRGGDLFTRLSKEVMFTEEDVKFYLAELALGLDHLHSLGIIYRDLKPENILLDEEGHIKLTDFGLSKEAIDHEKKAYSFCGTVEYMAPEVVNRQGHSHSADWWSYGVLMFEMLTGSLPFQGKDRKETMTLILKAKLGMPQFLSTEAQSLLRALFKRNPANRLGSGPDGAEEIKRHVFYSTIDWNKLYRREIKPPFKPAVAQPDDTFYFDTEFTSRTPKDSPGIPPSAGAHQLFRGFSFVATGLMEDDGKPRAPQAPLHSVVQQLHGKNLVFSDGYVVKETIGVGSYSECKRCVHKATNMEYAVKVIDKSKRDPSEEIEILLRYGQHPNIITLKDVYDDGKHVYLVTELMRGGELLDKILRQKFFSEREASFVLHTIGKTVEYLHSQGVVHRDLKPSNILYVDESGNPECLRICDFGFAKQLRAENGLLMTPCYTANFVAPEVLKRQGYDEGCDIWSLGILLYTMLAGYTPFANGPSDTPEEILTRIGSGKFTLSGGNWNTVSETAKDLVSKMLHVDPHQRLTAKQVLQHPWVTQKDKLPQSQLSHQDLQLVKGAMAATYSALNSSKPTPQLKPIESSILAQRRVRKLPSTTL
Sequence of UniProt P51965 (whole entry, looked up): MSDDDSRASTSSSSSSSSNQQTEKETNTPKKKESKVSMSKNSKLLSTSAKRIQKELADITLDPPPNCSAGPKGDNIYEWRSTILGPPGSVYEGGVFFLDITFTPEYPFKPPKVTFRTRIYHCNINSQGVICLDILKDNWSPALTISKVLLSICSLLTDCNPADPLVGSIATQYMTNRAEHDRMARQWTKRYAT
Sequence of UniProt P49336 (whole entry, looked up): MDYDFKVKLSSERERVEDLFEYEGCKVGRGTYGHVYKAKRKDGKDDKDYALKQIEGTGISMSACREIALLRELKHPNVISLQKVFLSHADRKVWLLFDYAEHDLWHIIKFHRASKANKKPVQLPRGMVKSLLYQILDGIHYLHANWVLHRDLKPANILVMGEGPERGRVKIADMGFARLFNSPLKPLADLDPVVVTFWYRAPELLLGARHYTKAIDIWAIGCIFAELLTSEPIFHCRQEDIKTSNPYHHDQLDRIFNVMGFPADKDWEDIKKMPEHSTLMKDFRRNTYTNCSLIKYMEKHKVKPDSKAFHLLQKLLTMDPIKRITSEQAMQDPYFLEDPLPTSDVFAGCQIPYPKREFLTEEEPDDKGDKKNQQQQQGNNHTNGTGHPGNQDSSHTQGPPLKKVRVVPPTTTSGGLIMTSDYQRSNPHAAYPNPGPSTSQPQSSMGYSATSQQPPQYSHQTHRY
Sequence of UniProt P23443 (whole entry, looked up): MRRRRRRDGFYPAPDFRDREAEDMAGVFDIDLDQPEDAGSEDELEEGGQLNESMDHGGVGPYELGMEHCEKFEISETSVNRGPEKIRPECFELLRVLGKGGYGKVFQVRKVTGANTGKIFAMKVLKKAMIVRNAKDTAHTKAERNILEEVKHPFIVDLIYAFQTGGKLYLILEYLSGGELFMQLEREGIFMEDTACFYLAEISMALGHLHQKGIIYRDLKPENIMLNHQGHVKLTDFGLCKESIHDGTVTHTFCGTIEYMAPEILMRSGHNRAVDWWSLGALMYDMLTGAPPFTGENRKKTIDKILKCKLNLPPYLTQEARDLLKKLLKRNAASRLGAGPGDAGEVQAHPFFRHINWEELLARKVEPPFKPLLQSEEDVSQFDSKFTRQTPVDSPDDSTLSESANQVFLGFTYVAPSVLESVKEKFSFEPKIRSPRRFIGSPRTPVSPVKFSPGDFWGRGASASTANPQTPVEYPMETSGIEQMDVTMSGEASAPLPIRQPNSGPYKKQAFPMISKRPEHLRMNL
Sequence of UniProt P11802 (whole entry, looked up): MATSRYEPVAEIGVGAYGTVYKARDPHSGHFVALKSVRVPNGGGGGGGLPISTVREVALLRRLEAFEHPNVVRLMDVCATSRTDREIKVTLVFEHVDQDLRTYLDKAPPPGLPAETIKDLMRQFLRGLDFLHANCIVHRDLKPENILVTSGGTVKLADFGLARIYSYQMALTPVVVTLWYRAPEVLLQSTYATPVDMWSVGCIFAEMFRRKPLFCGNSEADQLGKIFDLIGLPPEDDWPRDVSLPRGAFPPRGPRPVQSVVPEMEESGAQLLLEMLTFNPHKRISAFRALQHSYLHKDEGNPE
Sequence of UniProt Q9BYT3 (whole entry, looked up): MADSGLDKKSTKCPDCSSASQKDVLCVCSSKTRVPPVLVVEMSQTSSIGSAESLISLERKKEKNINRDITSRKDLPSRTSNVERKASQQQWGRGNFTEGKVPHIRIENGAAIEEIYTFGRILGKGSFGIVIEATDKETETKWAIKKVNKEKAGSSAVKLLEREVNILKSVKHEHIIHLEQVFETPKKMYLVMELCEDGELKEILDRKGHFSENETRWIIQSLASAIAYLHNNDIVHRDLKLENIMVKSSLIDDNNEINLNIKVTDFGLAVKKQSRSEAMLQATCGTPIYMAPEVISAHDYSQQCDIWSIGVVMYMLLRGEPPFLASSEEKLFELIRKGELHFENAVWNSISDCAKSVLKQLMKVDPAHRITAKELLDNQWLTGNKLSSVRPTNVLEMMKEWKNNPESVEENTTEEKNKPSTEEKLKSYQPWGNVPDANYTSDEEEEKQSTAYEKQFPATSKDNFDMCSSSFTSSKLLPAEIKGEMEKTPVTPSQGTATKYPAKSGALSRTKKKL
Sequence of UniProt Q9Y243 (whole entry, looked up): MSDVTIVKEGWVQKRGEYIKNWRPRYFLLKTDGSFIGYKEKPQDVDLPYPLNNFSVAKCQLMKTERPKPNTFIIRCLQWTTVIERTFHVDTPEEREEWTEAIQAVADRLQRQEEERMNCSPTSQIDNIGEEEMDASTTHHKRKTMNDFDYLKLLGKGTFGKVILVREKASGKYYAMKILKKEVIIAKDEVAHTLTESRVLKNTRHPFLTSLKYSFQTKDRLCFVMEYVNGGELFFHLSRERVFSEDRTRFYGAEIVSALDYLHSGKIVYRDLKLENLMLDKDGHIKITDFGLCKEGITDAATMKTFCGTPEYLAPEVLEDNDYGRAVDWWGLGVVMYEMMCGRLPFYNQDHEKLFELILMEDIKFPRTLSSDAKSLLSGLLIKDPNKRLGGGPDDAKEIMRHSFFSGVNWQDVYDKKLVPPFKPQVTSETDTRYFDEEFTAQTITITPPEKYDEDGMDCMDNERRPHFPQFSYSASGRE

Sample 1 — host: human; matrix: microsomes or S9; concentration: 2 µM; time: 0.5 h
For `COc1ccc(OC)c(N2C(=O)c3cc4occc4n3CC2(C)C(=O)NC2CCCCCC2)c1` (centres unmarked), the remaining compound was 0.726%.
For `CCc1ccc(S(=O)(=O)c2nnn3c2[nH]c(=O)c2sccc23)cc1`, the remaining compound was 1.32%.
`O=C(Cc1cc(Br)ccc1F)OCCNC(=O)c1cccnc1` gave a remaining compound of 2.29%.
With `CCn1nc(-c2csc(C)n2)nc1-c1ccc2[nH]c(C)nc2c1` the remaining compound was over 100%.

Sample 2 — method: competition with immobilised ligand; concentration: 1 µM
Compound: CN([C@@H]1CCc2c(CC(=O)O)c3cc(S(C)(=O)=O)ccc3n2C1)S(=O)(=O)c1ccc(F)cc1
For Ribosomal protein S6 kinase beta-1 (RPS6KB1, Homo sapiens, UniProt P23443); cell-free assay: remaining binding read 100%.
Tyrosine-protein kinase ABL1, phosphorylated (ABL1, Homo sapiens, UniProt P00519, E255K); binding — remaining binding: 100%.
The remaining binding was 92% (Misshapen-like kinase 1 (MINK1, Homo sapiens, UniProt Q8N4C8); cell-free assay).
It gave 100% for remaining binding (Testis-specific serine/threonine-protein kinase 1 (TSSK1B, Homo sapiens, UniProt Q9BXA7); cell-free assay).
For Ribosomal protein S6 kinase alpha-1, N-terminal kinase domain (RPS6KA1, Homo sapiens, UniProt Q15418); cell-free assay: remaining binding read 91%.
Serine/threonine-protein kinase tousled-like 1 (TLK1, Homo sapiens, UniProt Q9UKI8); cell-free assay — remaining binding: 100%.
The remaining binding was 83% (RAC-gamma serine/threonine-protein kinase (AKT3, Homo sapiens, UniProt Q9Y243); cell-free assay).
It gave 95% for remaining binding (Tyrosine-protein kinase receptor Tie-1 (TIE1, Homo sapiens, UniProt P35590); cell-free assay).
For Cyclin-dependent kinase 8 (CDK8, Homo sapiens, UniProt P49336); cell-free assay: remaining binding read 100%.
G protein-coupled receptor kinase 4 (GRK4, Homo sapiens, UniProt P32298); cell-free assay — remaining binding: 100%.
It gave 99% for remaining binding (Serine/threonine-protein kinase 33 (STK33, Homo sapiens, UniProt Q9BYT3); cell-free assay).
Proto-oncogene tyrosine-protein kinase receptor Ret (RET, Homo sapiens, UniProt P07949, V804L); cell-free assay — remaining binding: 100%.
The remaining binding was 100% (Serine/threonine-protein kinase Nek1 (NEK1, Homo sapiens, UniProt Q96PY6); cell-free assay).
For Myosin-IIIa (MYO3A, Homo sapiens, UniProt Q8NEV4); cell-free assay: remaining binding read 100%.
For Phosphorylase b kinase gamma catalytic chain, skeletal muscle/heart isoform (PHKG1, Homo sapiens, UniProt Q16816); cell-free assay: remaining binding read 100%.
The remaining binding was 79% (Serine/threonine-protein kinase PAK 3 (PAK3, Homo sapiens, UniProt O75914); cell-free assay).
For Mitogen-activated protein kinase 10 (MAPK10, Homo sapiens, UniProt P53779); cell-free assay: remaining binding read 100%.
The remaining binding was 81% (Serine/threonine-protein kinase Nek9 (NEK9, Homo sapiens, UniProt Q8TD19); cell-free assay).
It gave 100% for remaining binding (Serine/threonine-protein kinase TAO2 (TAOK2, Homo sapiens, UniProt Q9UL54); cell-free assay).
Cyclin-dependent kinase 4, with cyclin D1 (CDK4, Homo sapiens, UniProt P11802); cell-free assay — remaining binding: 91%.

Sample 3 — method: RNA Bind-n-Seq; molecule type: RNA; matrix: in vitro; concentration: 365 nM; baseline: no-protein control; reading: higher = stronger binding
Target: RNA binding protein fox-1 homolog 2, RRM domain, GST-SBP tag (RBFOX2, Homo sapiens, UniProt O43251-10, residues 100-194)
Notes: natural RNA segment, single round, ends assumed
Residues (chain): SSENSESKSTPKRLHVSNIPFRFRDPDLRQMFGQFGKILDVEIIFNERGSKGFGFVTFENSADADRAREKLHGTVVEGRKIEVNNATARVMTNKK
`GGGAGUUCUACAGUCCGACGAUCUCACUCUUAUAGGCCUACAUGCAGAUGGGCUUGAAGAGAAUUGGCCUUUCAUUUUUCACGCUCGUAUUUCCCCACCUGUCCAAGGGUGCAGAUAGCAGGAUUGUGGGGUCUGGAAUUCUCGGGUGCCAA`: “RBNS enrichment (R)” 1.37.
`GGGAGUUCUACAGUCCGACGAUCGCUGUUUCCUUAGUCUUCAUUUUAUAAAAGUUGUUGCCUUUUUAACGGAGUGUCACUUUCAACCGGCCUCCCCUACCCCUGCUGGCCGGGGAUGGAGACAUGUCAUUUGUUGGAAUUCUCGGGUGCCAA` — result for “RBNS enrichment (R)”: 0.254.
`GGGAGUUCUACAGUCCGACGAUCAGGCACUGCAUGCCUGUCUCCUUAUGAGGAAGGCUGCAAAUUUCAGAGAAAGGGAGGUGAGGUUUCCACCAUGUUGGCUGUUGACUCUCCCUGUAUGUUAAACCCUUGACUGGAAUUCUCGGGUGCCAA`: “RBNS enrichment (R)” 0.913.
`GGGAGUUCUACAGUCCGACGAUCUUUUCCCAGUAUUUCCUGAAUUUGCCCGUGCAGGUGUGUGACCCUCCCUGAGCAUCUGGAGACACCUGGAGCAUGAAACCUUCUGUAAUCGCUGAGAUCUGUAACUUACAUGGAAUUCUCGGGUGCCAA`: “RBNS enrichment (R)” 26.5.
Under “RBNS enrichment (R)”, `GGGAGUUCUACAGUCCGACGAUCUGGAAAAGGACUUUUUUCUUCACCUUCCUCUUUGCCUCAUGUGUACACACACACACACAUCUUGUACCCCAGACCUCUGGGUAUAAUUUUCAUAAUUGGUGCAGAAAGAAUGGAAUUCUCGGGUGCCAA` is recorded as 0.742.
For `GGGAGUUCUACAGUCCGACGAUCAGAGUUUUAGCUGCCUUACUGAACAUUGUCCCAACAGAAAGUUCCUAUCGUUCUCCUUCCUUCUUGGCAGGCUUCAGGUUUUGCUGCAGCCCCUGGAGCCAACAUUUUGGUGGAAUUCUCGGGUGCCAA`, “RBNS enrichment (R)” read 0.618.
Under “RBNS enrichment (R)”, `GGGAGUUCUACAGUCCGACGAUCUUUUUGGUGCUGUAUGUGAUGAGAGACUCAUUCAUAGUGGAUCAAUGAAUAAUCUCUUGUAGGUAACUUUAUUUGAAAAUAAAGAUUUCCUUUUACUUCCAGAAUAACCAUGGAAUUCUCGGGUGCCAA` is recorded as 0.471.
`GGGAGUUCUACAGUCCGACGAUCCUUUUUAAAAUGAUUUAGACCGAUUUUCAGAUUUUAUUUCGUUAUGAUUAAAGAUGUCUCAUGUACUUGGAAAAGUGAGCAUUUUUUUUUUUUUUGUAUUUCACUUUCAUUGGAAUUCUCGGGUGCCAA`: “RBNS enrichment (R)” 1.39.

Sample 4 — cell line: HaCaT; concentration: 100 µM; time: 18 h
The viability of `S=C1SCN(Cc2ccccc2)CN1Cc1ccccc1` is reported as 68.3%.
For `CC1=C(/C=C/C(C)=C/C=C/C(C)=C/CO)C(C)(C)CCC1`, the viability was 78.7%.
With `CC(=O)Nc1ccccc1` the viability was 108%.
For `O=c1[nH]c(=O)n(C2CCCO2)cc1F` (centres unmarked), the viability was 83%.

Sample 5 — Sequence: B1 (NFX1 RING domain); method: yeast two-hybrid; matrix: yeast; notes: mostly zero background; baseline: not given; reading: higher = stronger interaction
B1: NFX1 RING domain (UniProt Q12986); chain IEQLTTEKYECMVCCELVRVTAPVWSCQSCYHVFHLNCIKKWARSPASQADGQSGWRCPACQNVSAHVPNTY
UBE2L6 UBC core domain (UniProt O14933) — “lacZ reporter activity”: 0.
It gave 0 for “lacZ reporter activity” (UBE2V1 UBC core domain (UniProt Q13404)).
For UBE2E2 UBC core domain (UniProt Q96LR5): “lacZ reporter activity” read 0.
The “lacZ reporter activity” was 0 (UBE2E1 UBC core domain (UniProt P51965)).
It gave 0 for “lacZ reporter activity” (UBE2V2 UBC core domain (UniProt Q15819)).
It gave 0 for “lacZ reporter activity” (UBE2Q2 UBC core domain (UniProt Q8WVN8)).

Sample 6 — Structure (SMILES): C=CCc1ccc(O)c(-c2cc(CC=C)ccc2O)c1; effect on: chloride current; method: whole-cell voltage clamp
For Anoctamin-1 (ANO1, Homo sapiens, UniProt Q5XXA6, del476-501/R541D); inhibitor; mutant R515D: IC50 read 187 µM.
Anoctamin-1 (ANO1, Homo sapiens, UniProt Q5XXA6, del476-501/F623A); inhibitor; mutant F597A at 100 mV, added: 300 nM Ca2+ — IC50: 25.4 µM.
The IC50 was 92 µM (Anoctamin-1 (ANO1, Homo sapiens, UniProt Q5XXA6, del476-501/M544A); membrane voltage -40 mV).

Single results of other studies
For `CC(=O)N[C@@H](Cc1c[nH]c2ccccc12)C(=O)N[C@@H](CCC(=O)C=[N+]=[N-])C(=O)OC(C)C`, the pyruvate level was 1.19e+07 a.u. and 6.01e+06 a.u. and 1.07e+07 a.u. and 6.85e+06 a.u. and 1.43e+07 a.u. and 1.3e+07 a.u. (UPLC-MS/MS; EL4 tumor, C57BL/6 CES1-/- mice, tumor; subcutaneous, 0.3 mg/kg DON equivalent daily, 5 days; higher = more metabolite).
`COc1ccc(Oc2cc(NCCC(F)(F)F)c3ncc(-c4ccc(C(=O)NC5CC5)c(C)c4)n3n2)c(F)c1F` gave a cell count of 0.376 and 0.32 (NCI-H1048; Vi-Cell; 12 nM, 3 d; baseline: DMSO).

Excerpt of the above (sample 1):
For `COc1ccc(OC)c(N2C(=O)c3cc4occc4n3CC2(C)C(=O)NC2CCCCCC2)c1` (centres unmarked), the remaining compound was 0.726%.
For `CCc1ccc(S(=O)(=O)c2nnn3c2[nH]c(=O)c2sccc23)cc1`, the remaining compound was 1.32%.
`O=C(Cc1cc(Br)ccc1F)OCCNC(=O)c1cccnc1` gave a remaining compound of 2.29%.
